Results from different studies.
Lines come from different studies, so protocols differ. Values joined by “and” are separate records of one study, mostly repeats; a detail may differ. Numbers after ± are the reported error.

| SMILES | assay | system | setting | measurement | result |
| --- | --- | --- | --- | --- | --- |
| CC(C)c1ccccc1[C@@H]1CCCN1C1CC2(CCN(c3ccc(C(=O)NS(=O)(=O)c4ccc(NC[C@H]5CC[C@](C)(O)CC5)c([N+](=O)[O-])c4)c(Oc4cnc5[nH]ccc5c4)c3)CC2)C1 | – | mouse Maver1 xenograft | oral, 5 mg/kg once daily, day 14 | tumour growth inhibition | 86% |
| C=CC(=O)N1CC2C(=O)N(CCN(C)C)c3c(c4cc(Cl)c(-c5c(O)cccc5F)nc4n(-c4c(C)ccnc4C(C)C)c3=O)N2CC1C (stereo not drawn) | – | SW837, mouse xenograft | oral, 30 mg/kg once daily | tumour regression | 114% |
| CC[C@H](C)[C@@H]1NC(=O)[C@H](CCSC)NC(=O)[C@H](Cc2c[nH]c3ccccc23)NC(=O)[C@H](CC(N)=O)NC(=O)[C@@H](NC(=O)CCOCCOCCOCCNC(=O)CN2CCN(CC(=O)O)CCN(CC(=O)O)CC2)CSSC[C@@H](C(=O)O)NC(=O)[C@H](CCC(=O)O)NC(=O)[C@H](CCCCN)NC(=O)[C@H](CC(N)=O)NC1=O [gallium-68 labelled] | PET | mouse, CHO-hLAG-3 xenograft | iv, 60 min | tumour uptake | 0.28 ± 0.02 %ID/g |
| CC(C)c1ccc(N(C)c2ccc3c(c2)OCC[C@H]3CNc2cnccc2C(=O)O)cc1 | – | mouse, OCI-LY19 xenograft | 15 mg/kg QD, day 21 | tumour growth inhibition | 83% |
| CO.Cc1ccc2c(Cl)cc(Cl)c([O-])c2n1.Cc1ccc2c(Cl)cc(Cl)c([O-])c2n1.[Co+2].c1ccc2nc3c4cccnc4c4ncccc4c3nc2c1 | – | nude mouse, HeLa xenograft | 2.0 mg/kg, end of treatment | tumour volume | 613 ± 98.5 mm3 |
| COC(=O)C1CN1S(=O)(=O)c1ccc2cc(C)ccc2c1 (stereo not drawn) | – | mouse, Lewis lung carcinoma | ip, 100 mg/kg, 336 h | tumour growth inhibition | 51% |
| CC1(C)CCC(CN2CCN(c3ccc(C(=O)NS(=O)(=O)c4ccc(NCC5CCOCC5)c([N+](=O)[O-])c4)c(Oc4cnc5[nH]ccc5c4)c3)CC2)=C(c2ccc(Cl)cc2)C1 | – | RS4;11, mouse RS4;11 xenograft | oral, 15 mg/kg once daily, day 14 | tumour growth inhibition | 104% |
| COc1cc(N2CCN(C(=O)C3CCCN3)CC2)ccc1Nc1ncc(Cl)c(Nc2ccccc2P(C)(C)=O)n1 (stereo not drawn) | – | NCI-H3122, mouse, H3122 xenograft | oral, 25 mg/kg every two days, 8 doses, 48 h | tumour volume | 686 mm3 and 454 mm3 and 474 mm3 |
| COc1cnc2cccc(N3CCc4c(cc(Cn5ccnc5)cc4-c4cn(C)nc4C(F)(F)F)C3=O)c2c1 | – | BALB/c nude mouse, MV4-11 xenograft | intraperitoneal, 50 mg/kg, day 10 after inoculation | tumour volume | 159 mm3 and 170 mm3 and 128 mm3 and 171 mm3 and 154 mm3 and 146 mm3 |

Some of these lines once more:
| SMILES | assay | system | setting | measurement | result |
| --- | --- | --- | --- | --- | --- |
| COc1cc(N2CCN(C(=O)C3CCCN3)CC2)ccc1Nc1ncc(Cl)c(Nc2ccccc2P(C)(C)=O)n1 (stereo not drawn) | – | NCI-H3122, mouse, H3122 xenograft | oral, 25 mg/kg every two days, 8 doses, 48 h | tumour volume | 686 mm3 and 454 mm3 and 474 mm3 |
